Experimental data pooled from the literature.
“And” joins repeats or separate records; there may be more than shown. Numbers after ± are the reported error.

| Compound | cell line | test | conditions | how to read | quantity | result |
| --- | --- | --- | --- | --- | --- | --- |
| CC[C@H](C)[C@H](NC(=O)[C@H](CCCNC(=N)N)NC(=O)[C@H](Cc1ccccc1)NC(=O)[C@H](Cc1cnc[nH]1)NC(=O)[C@@H](NC(=O)[C@H](Cc1ccccc1)NC(=O)[C@H](CC(C)C)NC(=O)[C@H](CC(C)C)NC(=O)[C@H](CCC(N)=O)NC(=O)[C@H](CCC(N)=O)NC(=O)[C@H](CC(C)C)NC(C)=O)[C@@H](C)CC)C(=O)NCC(=O)N[C@@H](CCCNC(=N)N)C(=O)N[C@@H](CCCNC(=N)N)C(=O)N[C@@H](CCCNC(=N)N)C(=O)N[C@@H](CCCNC(=N)N)C(=O)N[C@@H](CCCNC(=N)N)C(=O)N[C@@H](CCCNC(=N)N)C(=O)N[C@@H](CCCNC(=N)N)C(=O)N[C@@H](CCCNC(=N)N)C(N)=O | MT4 Luc | cell viability, luciferase signal decrease | – | – | cytotoxic concentration | 10 µM |
| COCn1cc(-c2cc([C@@H](C)NC(=O)c3cc(OCCN(C)C)ccc3C)c3ccccc3n2)cn1 | Vero E6 cells | – | 250 µM | – | viability | 11.1% and 7.58% |
| COc1ccc2c(c1)sc1nc(-c3ccc4c(c3)CN(C3CCC(=O)NC3=O)C4=O)c(NCc3ccccc3)n12 (stereo not drawn) | MOLT-4 | cell viability, CellTiter-Glo | 72 h | – | EC50 | 0.139 µM |
| O=C[C@@H]1CCC(=O)NCCCn2cc(nn2)C[C@H](NC(=O)OCc2ccccc2)C(=O)N[C@@H](CC2CCCCC2)C(=O)N1 | HG23 | crystal violet staining | 1 to 100 µM, 48 h | – | CC50 | > 100 µM |
| C[C@]12CCC3=C(C(=O)c4occ5c4[C@]3(C)[C@H]3O[C@H]3C5=O)[C@@H]1CCC2=O | MDA-MB-231 | cytotoxicity | – | – | IC50 | 0.0091 µM |
| CC(C)(C)c1ccc(-c2cn(-c3ccc(C(=O)C=C(O)C(=O)O)cc3)nn2)cc1 | VeroE6-TMPRSS2 | – | – | – | CC50 | > 50 µM |
| Cc1cc(S(=O)(=O)N(C)CC(=O)Nc2ccc3c(c2)OCCN3C2COC2)c2[nH]c(C#N)cc2c1 | mouse bone marrow-derived macrophages, uninfected | – | concentration not given | – | cytotoxicity | not toxic |
| COc1cc2c(N(C)C)nc(NCCCN(C)C)nc2cc1OCCCCCN | mouse primary fibroblasts | cytotoxicity, CCK-8 | 24 h | – | CC50 | 45.8 µM |
| O=C(Nc1ccccc1OS(=O)(=O)c1ccc(OC(F)(F)F)cc1)c1cnccn1 | MCF7 | MTT | 100 µM, 24 h | reference: untreated | viability | 84.2 ± 2.66% |
| CN1c2ccc(OC(=O)Nc3cccnc3)cc2C2(C)CCOC12 (single isomer, unassigned) | tau biosensor donor cells | – | concentration not given, 48 h | reference: DMSO | cell survival | no effect |
| CS(=O)(=O)C=CCNC(=O)c1ccc2[nH]c(=O)n(C3CC3)c2c1 | MRC-5 | cytotoxicity | – | – | IC50 | > 10 µM |
| O=C(NC1CCN(c2ncnc3[nH]cnc23)CC1)c1cccc(NS(=O)(=O)c2ccc(Cl)cc2)c1 | A549-ACE2 | – | 0.09145 µM | – | viability | 103% |
| O=C(O)C(O)=CC(=O)C1(Cc2ccc(Cl)cc2)CCN(C(=O)OCc2ccccc2)CC1 | VeroE6-TMPRSS2 | – | – | – | CC50 | > 50 µM |
| COc1ccc(S(=O)(=O)Nc2cccc(C(=O)NC3CCN(c4ncnc5[nH]cnc45)CC3)c2)cc1 | A549-ACE2 | – | 0.09145 µM | – | viability | 106% |
| COc1ccc2c3c([nH]c2c1)[C@H](CC(C)C)N1C(=O)[C@H](CC(=O)OCc2ccccc2)NC(=O)[C@@H]1C3 | A549 | MTT | – | – | CC50 | 49.9 µM and 46.6 µM and 52.2 µM |
| Cc1ccccc1S(=O)(=O)Nc1cccc(C(=O)NC2CCN(c3ncnc4[nH]cnc34)CC2)c1 | A549-ACE2 | – | 200 µM | – | viability | 80% |
| Cc1ccc(OCCN(C)C)cc1C(=O)N[C@H](C)c1cc(-c2ccn(C)n2)nc2ccccc12 | Vero E6 cells | – | 15.62 µM | – | viability | 104% and 101% |
| O=C(NC1CCN(c2ncnc3[nH]cnc23)CC1)c1cccc(NS(=O)(=O)c2ccc([N+](=O)[O-])cc2)c1 | A549-ACE2 | – | 0.01016 µM | – | viability | 100% |
| O=C(O)C(O)=CC(=O)c1ccc(O)c(O)c1 | VeroE6-TMPRSS2 | – | – | – | CC50 | > 50 µM |
| Cc1ccc2nc(-c3ccc4nc(-c5ccc(NC(=O)c6cccc(Cl)c6)cc5)sc4c3)sc2c1S(=O)(=O)O | Fa2N-4 immortalized hepatocytes | – | – | – | CC50 | > 50 µM |
| O=C(O)C(O)=CC(=O)C1(Cc2ccc(Cl)cc2)CCN(Cc2ccc3ccccc3c2)CC1 | VeroE6-TMPRSS2 | – | – | – | CC50 | > 50 µM |
| Cc1ccc(S(=O)(=O)Nc2cccc(C(=O)NC3CCN(c4ncnc5[nH]cnc45)CC3)c2)cc1Cl | A549-ACE2 | – | 2.469 µM | – | viability | 98.5% |
| NS(=O)(=O)c1ccc(-c2cn(-c3ccc(C(=O)C=C(O)C(=O)O)cc3)nn2)cc1 | VeroE6-TMPRSS2 | – | – | – | CC50 | > 50 µM |
| CCCCCCCCCC(=O)c1cc[nH]c1 | murine 3T3 fibroblasts | optical microscopy | – | – | maximum tolerated concentration | ≤ 23 µM |

Repeated from above:
| Compound | cell line | test | conditions | how to read | quantity | result |
| --- | --- | --- | --- | --- | --- | --- |
| Cc1cc(S(=O)(=O)N(C)CC(=O)Nc2ccc3c(c2)OCCN3C2COC2)c2[nH]c(C#N)cc2c1 | mouse bone marrow-derived macrophages, uninfected | – | concentration not given | – | cytotoxicity | not toxic |
| COc1cc2c(N(C)C)nc(NCCCN(C)C)nc2cc1OCCCCCN | mouse primary fibroblasts | cytotoxicity, CCK-8 | 24 h | – | CC50 | 45.8 µM |
| O=C(Nc1ccccc1OS(=O)(=O)c1ccc(OC(F)(F)F)cc1)c1cnccn1 | MCF7 | MTT | 100 µM, 24 h | reference: untreated | viability | 84.2 ± 2.66% |
